Experimental data collected from several papers.
Each numbered part is a random draw from the data of one study; scales do not carry over between parts.

Set 1
Target: RNA binding protein fox-1 homolog 2, RRM domain, GST-SBP tag (RBFOX2, Homo sapiens, UniProt O43251-10, residues 100-194)
Method: RNA Bind-n-Seq
Molecule type: RNA
Medium: in vitro
Concentration: 365 nM
Notes: natural RNA segment, single round, ends assumed
Baseline: no-protein control
Reading: higher = stronger binding
Target sequence (chain): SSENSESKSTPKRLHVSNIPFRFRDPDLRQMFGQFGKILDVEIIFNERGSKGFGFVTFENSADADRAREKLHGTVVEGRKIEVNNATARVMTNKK
Oligonucleotide	RBNS enrichment (R)
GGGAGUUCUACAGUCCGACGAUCCUUUUUGUUAGCCAAAGUGUUCUGUUUAUUUGGCUUGUCAUUUUCCGUGUGCUUUAAAAAGGUGUUGUUAUGAAGUUUGCUGUUCUGGCAAUAAACUUGCAGACCUUGGAUGGAAUUCUCGGGUGCCAA	6.66
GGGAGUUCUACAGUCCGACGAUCGUGCAAUGUAUGAAAAUCAAGUGUUAGGAAAUUUCAUGGUUUCACCUAUAACCUUUAUUUUAGAAUUGAACUAUGAUUAGAUUGUAUCUAAACCUGAAGUAUAAUUAUAUUGGAAUUCUCGGGUGCCAA	0.52
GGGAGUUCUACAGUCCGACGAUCCAGCUUCUACAACAAUCCCCACAAAAGAUGAACAGCCAUUAGAAGCCUCCCCUCCUUUUGAUGCUCAGCCCACUGUGAAGAGUGAGCUUGUUUUGUAAGCCACAUUGGUUUGGAAUUCUCGGGUGCCAA	0.321
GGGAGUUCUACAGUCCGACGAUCGAACAGGAAUGAAAGGAAACCUUCCCUUAACUCUUUCUGCUUCCCAUAGCAGGUCUGGUUCCUGCUCCCCGCCUAGGACAGGAGCUGUCUGGAGCUCCACCUUUGCAAAGUGGAAUUCUCGGGUGCCAA	0.432
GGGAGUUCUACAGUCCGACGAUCCAGUGUCCUCAGUGAGCUCUCUGAGGAGCAGGCUUUCCAUGUCAGCUAUCUGGAUAUUGGUAUGGCCAACUAGAGACUGGGGAUGGAGGGGACUGGAUCAAAGCAAGUAUUGGAAUUCUCGGGUGCCAA	0.582
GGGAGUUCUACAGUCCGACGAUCCGCAUUUUUGCAUGGUAAGGAAAAGGCUUACUUGCCCUUCAGCUCAUAAAAGCAGAAGGUGUGCUAUUCACAGUACCAUGCGAGUAGCCCACAGUUAAUUCCCGGCAGAUUGGAAUUCUCGGGUGCCAA	0.934
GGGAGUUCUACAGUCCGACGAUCCCUUCAAGUAUGUGCUACUUUUUUGUCCCUGUAUCUAACUCAAAUCAGGAACUGUAUUUUUUUUAAUGAUUUGCUUUUGAAACUUGAAGUCUUGAAAACAGUGUGAUGCAUGGAAUUCUCGGGUGCCAA	3.02
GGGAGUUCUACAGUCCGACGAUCUUCUUAUAAGUGUCUUACUUUAAAUCAUGAUAAUAGAAUGUGCACAGUAGCUGAAUUGUGUUAUCAAAACAACUCUGACUUCUGCCCAGAGCACAUUAAAACCAAAGUCUUGGAAUUCUCGGGUGCCAA	0.313

Set 2
Target: Sal-like protein 4, full length isoform A (SALL4, Homo sapiens, UniProt Q9UJQ4, residues 1-1053)
Chain of UniProt Q9UJQ4 (whole entry, looked up): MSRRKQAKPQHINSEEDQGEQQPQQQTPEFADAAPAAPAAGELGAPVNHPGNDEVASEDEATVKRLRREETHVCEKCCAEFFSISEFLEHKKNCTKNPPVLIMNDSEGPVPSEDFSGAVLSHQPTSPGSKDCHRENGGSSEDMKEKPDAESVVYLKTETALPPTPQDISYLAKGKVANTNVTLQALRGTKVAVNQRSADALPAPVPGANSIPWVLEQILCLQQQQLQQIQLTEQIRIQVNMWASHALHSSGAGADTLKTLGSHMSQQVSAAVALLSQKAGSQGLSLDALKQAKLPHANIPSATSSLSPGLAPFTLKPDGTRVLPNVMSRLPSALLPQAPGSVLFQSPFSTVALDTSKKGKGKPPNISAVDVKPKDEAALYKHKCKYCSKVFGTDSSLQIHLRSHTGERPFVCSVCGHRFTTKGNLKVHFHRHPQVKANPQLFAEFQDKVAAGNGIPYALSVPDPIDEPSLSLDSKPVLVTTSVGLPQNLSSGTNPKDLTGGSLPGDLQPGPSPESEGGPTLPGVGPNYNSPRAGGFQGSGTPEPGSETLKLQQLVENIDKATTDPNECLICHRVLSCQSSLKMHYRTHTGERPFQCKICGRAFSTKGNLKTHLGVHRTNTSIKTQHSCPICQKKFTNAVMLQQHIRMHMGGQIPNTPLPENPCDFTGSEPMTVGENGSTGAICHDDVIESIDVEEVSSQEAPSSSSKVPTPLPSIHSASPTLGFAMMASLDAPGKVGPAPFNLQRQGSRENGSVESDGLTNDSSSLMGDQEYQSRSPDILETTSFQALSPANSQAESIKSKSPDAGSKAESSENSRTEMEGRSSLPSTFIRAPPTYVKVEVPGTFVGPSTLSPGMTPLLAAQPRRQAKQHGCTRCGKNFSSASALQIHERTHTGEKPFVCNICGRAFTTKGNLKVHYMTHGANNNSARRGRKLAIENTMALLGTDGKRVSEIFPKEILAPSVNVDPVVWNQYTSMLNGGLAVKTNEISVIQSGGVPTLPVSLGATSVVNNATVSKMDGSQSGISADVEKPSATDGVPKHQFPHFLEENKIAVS
Method: universal PBM
Molecule type: double-stranded DNA, one strand shown
Medium: in vitro
Concentration: 600 nM
Notes: 8-mer, flanks averaged, mean of replicates
Reading: higher = stronger binding
Oligonucleotide	E-score
AGAAACTC	0.0297
AATGAATG	0.309
ACTTTTCA	0.156
AGGGTCTC	-0.225
CGAACCGA	-0.0995
AGTACCCA	-0.106
AAGCTCCC	-0.296
CCTGATTA	0.122
ACTGCAAA	0.167
GGACCACA	-0.0909
AATCGCCT	-0.0825
CTGGAGAC	-0.267
GTTCAAGA	0.0432
CGCGAAAA	0.0388
ACAAATCA	0.265
CCGCCTAC	-0.167
ACGATTGC	0.0567
ATACTTGG	0.0352

Set 3
Target: RING finger protein unkempt homolog, zinc fingers 1-6, GST-SBP tag (UNK, Homo sapiens, UniProt Q9C0B0, residues 30-357)
Method: RNA Bind-n-Seq
Molecule type: RNA
Medium: in vitro
Concentration: not given
Notes: RNA with constant flanks, human and mouse sites, ends assumed
Baseline: input RNA pool
Reading: higher = stronger binding
Construct (chain): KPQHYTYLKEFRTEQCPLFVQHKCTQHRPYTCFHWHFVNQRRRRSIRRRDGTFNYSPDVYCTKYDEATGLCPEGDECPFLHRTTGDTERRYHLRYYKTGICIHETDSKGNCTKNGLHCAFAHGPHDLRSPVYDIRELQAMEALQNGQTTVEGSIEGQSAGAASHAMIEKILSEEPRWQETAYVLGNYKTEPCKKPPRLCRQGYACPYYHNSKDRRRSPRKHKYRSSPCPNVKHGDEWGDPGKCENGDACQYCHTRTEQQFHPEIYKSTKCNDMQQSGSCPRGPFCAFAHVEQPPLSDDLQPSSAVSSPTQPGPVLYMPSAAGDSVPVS
Oligonucleotide	bound/input enrichment [ratio]
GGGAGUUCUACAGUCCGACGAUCAGCUCUAGGCUUUUCAGAUGUGGAUCAUACCUAUGCUCAAAGAACUCAGCUCUUUGACACCUUAGUAAAUUUCUUUCCUGACAGCAUGACUCCUCCUAAAGGCAACCUGGUAGACCUGAUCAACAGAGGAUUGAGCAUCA	5.79
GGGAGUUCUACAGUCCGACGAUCAAACAAGCCUUUGAAAGAUGUCAUAGGCUCUCUGAUCCUUCUGACUUACCAAGGAAUGCCUUCAGAAUUUUUACCAUUCUUGUGGAAUUUUUAUGUAUUGAGCAUAUUGAUUAUGCUUUGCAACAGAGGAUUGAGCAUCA	0.0765
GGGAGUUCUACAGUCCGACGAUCUAAGGGUGAUGCUUUAUUGCGGUUCUGAGACUUGAAAACUAUUGGUAUUUUUUAUCUCUUUUGUUCAUGACAAGCGUAUAUAACAUGUAUUAAUAUUUUCUUAGUCUAGGUACUUACUGUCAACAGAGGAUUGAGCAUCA	0.569
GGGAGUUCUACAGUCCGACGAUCGCUGUAGUUUAUUUUCUAAAGAUGCCAAAGGAAACAAGAUUUUUCUUUAUUUAUUUUAAAUACCUGAAACCUCGUACUUUAUAUUUUGAAGUAAGGUGGGAUUGUGUGAAAAUGUGGAUGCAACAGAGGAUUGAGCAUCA	1.43
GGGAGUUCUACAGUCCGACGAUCGAAGAAGCCCAUAAACUACCAGUAAAACACUUUACUAAUCCAUAUUGUAACAUCUACUUGAAUAGCGUCCAAGUAGCAAAAACUCAUGCAAGGGAGGGGCAAAACCCAGUAUGGUCAGAGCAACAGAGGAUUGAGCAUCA	0.357
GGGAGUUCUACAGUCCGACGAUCGCGAGCAAAGUGCUGCUGUGCCAUGGGGAGCUGCGGAGCAAGAGUGGACAUAAACUUUACAUUUUCCUGUUUCAAGACAUCUUGGUUCUGACUCGGCCCGUCACACGGAACGAACGGCACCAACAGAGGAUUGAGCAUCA	0.109
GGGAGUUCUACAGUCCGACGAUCCUCCCACGUGCUUCCCCUUCUCCACUGGCUGGGAUCCCCCGGGCUCGGGGCGCAGUAAUAAUUUUUCACCAUGCAUCGGAAAAAGGUGGAUAACCGAAUCCGGAUUCUCAUUGAGAAUGGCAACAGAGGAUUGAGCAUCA	0.324
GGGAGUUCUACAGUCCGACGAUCCUGAGCUUGGUGCUCAAUUUUAGAAAAAUCACCGCAUUCCUCUCUAGUUCCAAACCAUACACGGAGGCAGCUUCAAGCAAACAAUUAGAAAAUCAGAACCCCCAGGGCAGGCAGCUCCUUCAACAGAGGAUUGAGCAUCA	8.5

Set 4
Target: Hepatocyte nuclear factor 3-alpha (Foxa1, Mus musculus, UniProt P35582, residues 1-468, full length assumed)
Method: EMSA with sequencing
Molecule type: double-stranded DNA, one strand shown
Medium: in vitro
Concentration: 10 and 20 nM
Notes: whole designed probe, mean of two concentrations, ends assumed
Baseline: negative control set to 0
Reading: higher = stronger binding
Construct (chain): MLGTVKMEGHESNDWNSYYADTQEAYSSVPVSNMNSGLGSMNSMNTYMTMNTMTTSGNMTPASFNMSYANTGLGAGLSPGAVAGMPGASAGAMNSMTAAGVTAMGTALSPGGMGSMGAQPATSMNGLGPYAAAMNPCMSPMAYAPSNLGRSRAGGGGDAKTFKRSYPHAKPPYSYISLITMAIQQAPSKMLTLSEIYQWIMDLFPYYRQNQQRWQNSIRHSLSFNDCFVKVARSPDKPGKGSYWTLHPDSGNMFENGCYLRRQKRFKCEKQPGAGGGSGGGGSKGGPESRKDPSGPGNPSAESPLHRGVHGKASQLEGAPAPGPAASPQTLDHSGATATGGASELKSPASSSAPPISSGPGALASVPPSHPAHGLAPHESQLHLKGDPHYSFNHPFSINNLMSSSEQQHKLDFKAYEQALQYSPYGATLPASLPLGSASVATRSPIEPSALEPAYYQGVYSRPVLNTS
Oligonucleotide	normalised bound fraction [ratio]
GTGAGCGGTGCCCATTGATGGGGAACAAAGAGAAAAATAAATATCATCATGGACTTTAATGTGCACAGAAAATAAAATGTTCAATAAAAAATATTAATTATTTCTAGTTTCATGCTTTCTAGATTACACAGGTAATATATTTCAAAATATTTAAATTACCTTTAAAATGAAAATACTAAAAAATGTATGAGAAAAGAATAGAGTAAAGTCAAGATGCTTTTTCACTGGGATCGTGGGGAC	0.206
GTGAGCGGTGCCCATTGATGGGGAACATCTTCCCCTGCATTCCCCTCCCCAGTCCTCACCTTCCCGGGTTATTTGCAGATAGGAAAATAAATAAAGCCGGCATTCGTTAACCCTCTTCTGGCGCAAACTGCTGTTTGCTCTGGATGAATCATGGTCCTTTGGCGACGCCAGGCTCCGGGAGAGCAAAGCACCGTGTCAGGGCCATGATCCGGGGTGGCCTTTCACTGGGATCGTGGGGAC	0.344
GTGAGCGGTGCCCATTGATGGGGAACTGCGGTGACGGACAGGGTTGGCGTGGAACCATTCCCCGCCCCTTTTACCAGCCTTTATGGGACCGATGAGACAACTCTTTAACTCTCCTTTGGGTGTTTACCTAAAATTTATTGGCTCTGTAAACAGTATTAATCACAGTAGTATTAACCTTCCCTGGAGCGCTTCCGAGTGTAAATGGCAGTTCTTGGCACTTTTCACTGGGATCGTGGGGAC	0.27
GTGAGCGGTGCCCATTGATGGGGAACTAAGTAATGCATTTCTGTGATTCAACAAAGATCTATCTCACAGAGATATCTCATTCTGCTCCCTTCCCCCAGTCACATTCTTCTTTGTCTTATGTAAACATGTCTTGTTTTTTTTTGTTTGCTTCTTGTTTATCCTTCAAGTGGGTTTTTTGTTTTTTGTTCTGTCACTATTATATATTTCTCTTCACTCCTGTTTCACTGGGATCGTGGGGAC	0.504
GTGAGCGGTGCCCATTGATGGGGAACATCTTCCCCCTCTTCCTTGCCCCACCAGCTCACCTTCCCGGGTTATTTGCAGATAGGAAAATAAATAAAGCCGGCATTCGTTAACCCTCTTCACGCGCATACTGCTGTTTGCTCTGCATGAATCATGGTCCTTACGCGACGCCAGGCTCCGGGAGAGCAAAGCACCGTGTCAGGCGCATGATCCGGGCTCGCCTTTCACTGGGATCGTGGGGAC	0.347

Some of these lines once more (set 2):
Oligonucleotide	E-score
CCGCCTAC	-0.167
AGAAACTC	0.0297
CGAACCGA	-0.0995
